Results pooled from the literature.
Numbered parts are unrelated; each lists some results of a single study. Several values in a cell are separate wells, animals, samples, runs or records.
Sequence of UniProt P52333 (whole entry, looked up): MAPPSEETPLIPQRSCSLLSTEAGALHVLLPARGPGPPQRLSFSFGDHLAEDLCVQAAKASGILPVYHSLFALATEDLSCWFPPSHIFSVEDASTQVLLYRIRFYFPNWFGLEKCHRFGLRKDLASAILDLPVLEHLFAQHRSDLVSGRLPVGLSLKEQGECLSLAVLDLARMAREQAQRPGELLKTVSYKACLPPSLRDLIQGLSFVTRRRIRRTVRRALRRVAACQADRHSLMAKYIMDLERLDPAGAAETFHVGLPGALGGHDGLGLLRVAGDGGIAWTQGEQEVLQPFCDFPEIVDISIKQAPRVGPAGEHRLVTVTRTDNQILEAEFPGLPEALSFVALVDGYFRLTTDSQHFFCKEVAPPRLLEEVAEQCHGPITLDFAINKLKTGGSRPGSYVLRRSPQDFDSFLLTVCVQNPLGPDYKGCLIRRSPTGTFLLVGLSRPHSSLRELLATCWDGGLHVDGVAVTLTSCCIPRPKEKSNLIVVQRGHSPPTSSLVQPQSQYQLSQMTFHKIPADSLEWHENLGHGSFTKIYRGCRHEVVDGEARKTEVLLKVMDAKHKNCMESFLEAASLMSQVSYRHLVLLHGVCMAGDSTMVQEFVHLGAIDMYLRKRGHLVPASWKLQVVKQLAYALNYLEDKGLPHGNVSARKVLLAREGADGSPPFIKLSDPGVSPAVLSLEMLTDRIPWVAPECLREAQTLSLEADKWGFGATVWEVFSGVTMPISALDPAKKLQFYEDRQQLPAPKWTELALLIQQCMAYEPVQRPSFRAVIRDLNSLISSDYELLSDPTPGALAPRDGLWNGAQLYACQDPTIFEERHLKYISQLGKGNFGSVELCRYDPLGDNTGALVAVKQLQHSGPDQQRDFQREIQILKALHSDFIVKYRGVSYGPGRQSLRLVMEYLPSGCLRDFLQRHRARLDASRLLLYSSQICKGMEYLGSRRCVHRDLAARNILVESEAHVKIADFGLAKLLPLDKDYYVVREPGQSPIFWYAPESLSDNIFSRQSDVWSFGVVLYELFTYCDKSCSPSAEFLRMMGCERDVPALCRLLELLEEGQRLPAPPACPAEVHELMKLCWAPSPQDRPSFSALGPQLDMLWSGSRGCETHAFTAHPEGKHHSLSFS
Sequence of UniProt Q9Y6M4 (whole entry, looked up): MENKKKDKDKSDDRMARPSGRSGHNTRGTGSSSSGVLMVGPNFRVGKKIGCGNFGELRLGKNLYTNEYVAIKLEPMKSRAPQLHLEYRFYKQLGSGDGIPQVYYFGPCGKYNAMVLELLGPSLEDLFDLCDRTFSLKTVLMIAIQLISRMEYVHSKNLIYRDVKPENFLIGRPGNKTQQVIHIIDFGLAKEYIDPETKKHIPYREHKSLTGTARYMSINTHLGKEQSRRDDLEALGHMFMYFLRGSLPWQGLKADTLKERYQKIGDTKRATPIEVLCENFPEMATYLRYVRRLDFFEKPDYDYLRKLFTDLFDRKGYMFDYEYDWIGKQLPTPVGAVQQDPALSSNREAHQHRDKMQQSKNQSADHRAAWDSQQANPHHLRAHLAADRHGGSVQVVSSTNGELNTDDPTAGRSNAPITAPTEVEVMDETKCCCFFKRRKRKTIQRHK
Sequence of UniProt Q9HC98 (whole entry, looked up): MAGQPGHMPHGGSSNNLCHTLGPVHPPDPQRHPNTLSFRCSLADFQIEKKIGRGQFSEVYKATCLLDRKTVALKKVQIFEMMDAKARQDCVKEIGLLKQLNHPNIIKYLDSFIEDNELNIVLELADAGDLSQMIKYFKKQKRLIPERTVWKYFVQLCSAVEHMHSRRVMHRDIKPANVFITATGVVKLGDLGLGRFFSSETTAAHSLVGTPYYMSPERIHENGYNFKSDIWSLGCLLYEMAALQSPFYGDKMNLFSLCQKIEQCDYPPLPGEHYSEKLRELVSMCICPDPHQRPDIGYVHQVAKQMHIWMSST
Sequence of UniProt P51955 (whole entry, looked up): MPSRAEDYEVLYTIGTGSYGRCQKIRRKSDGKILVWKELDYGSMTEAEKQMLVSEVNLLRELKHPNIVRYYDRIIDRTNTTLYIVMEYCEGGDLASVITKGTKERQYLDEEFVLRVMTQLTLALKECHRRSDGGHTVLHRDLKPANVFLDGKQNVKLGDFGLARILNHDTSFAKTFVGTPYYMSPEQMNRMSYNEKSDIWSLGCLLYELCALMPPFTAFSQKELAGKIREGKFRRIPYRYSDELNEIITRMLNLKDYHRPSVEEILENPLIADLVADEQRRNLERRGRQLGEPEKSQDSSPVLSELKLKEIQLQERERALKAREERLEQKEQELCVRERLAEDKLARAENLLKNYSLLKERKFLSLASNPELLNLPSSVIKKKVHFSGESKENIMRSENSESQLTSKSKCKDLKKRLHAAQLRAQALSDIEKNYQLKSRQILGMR
Sequence of UniProt P29320 (whole entry, looked up): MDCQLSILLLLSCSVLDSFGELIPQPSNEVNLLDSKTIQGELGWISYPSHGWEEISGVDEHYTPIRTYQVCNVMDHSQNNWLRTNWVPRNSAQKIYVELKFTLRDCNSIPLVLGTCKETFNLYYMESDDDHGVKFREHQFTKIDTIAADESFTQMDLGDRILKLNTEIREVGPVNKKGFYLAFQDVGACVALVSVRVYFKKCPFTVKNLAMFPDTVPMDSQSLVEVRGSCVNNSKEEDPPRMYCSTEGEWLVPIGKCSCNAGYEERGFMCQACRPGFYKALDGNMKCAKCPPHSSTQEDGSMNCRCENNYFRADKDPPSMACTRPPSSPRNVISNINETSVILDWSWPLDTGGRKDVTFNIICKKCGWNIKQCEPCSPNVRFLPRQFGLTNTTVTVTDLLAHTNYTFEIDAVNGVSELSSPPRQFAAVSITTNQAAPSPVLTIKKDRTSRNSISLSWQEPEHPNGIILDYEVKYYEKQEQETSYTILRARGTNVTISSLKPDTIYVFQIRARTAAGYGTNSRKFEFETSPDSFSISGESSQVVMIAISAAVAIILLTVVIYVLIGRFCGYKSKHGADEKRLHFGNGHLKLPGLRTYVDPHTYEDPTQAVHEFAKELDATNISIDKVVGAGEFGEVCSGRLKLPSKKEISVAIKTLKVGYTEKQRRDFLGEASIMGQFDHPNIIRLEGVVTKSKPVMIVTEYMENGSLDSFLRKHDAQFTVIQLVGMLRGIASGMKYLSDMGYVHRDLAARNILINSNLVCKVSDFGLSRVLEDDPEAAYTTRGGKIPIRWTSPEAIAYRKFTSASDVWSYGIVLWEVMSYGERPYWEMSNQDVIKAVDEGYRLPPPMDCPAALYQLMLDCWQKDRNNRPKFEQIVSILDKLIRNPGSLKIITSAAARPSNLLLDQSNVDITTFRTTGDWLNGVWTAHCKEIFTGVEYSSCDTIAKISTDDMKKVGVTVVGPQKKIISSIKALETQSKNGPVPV
Sequence of UniProt P42684 (whole entry, looked up): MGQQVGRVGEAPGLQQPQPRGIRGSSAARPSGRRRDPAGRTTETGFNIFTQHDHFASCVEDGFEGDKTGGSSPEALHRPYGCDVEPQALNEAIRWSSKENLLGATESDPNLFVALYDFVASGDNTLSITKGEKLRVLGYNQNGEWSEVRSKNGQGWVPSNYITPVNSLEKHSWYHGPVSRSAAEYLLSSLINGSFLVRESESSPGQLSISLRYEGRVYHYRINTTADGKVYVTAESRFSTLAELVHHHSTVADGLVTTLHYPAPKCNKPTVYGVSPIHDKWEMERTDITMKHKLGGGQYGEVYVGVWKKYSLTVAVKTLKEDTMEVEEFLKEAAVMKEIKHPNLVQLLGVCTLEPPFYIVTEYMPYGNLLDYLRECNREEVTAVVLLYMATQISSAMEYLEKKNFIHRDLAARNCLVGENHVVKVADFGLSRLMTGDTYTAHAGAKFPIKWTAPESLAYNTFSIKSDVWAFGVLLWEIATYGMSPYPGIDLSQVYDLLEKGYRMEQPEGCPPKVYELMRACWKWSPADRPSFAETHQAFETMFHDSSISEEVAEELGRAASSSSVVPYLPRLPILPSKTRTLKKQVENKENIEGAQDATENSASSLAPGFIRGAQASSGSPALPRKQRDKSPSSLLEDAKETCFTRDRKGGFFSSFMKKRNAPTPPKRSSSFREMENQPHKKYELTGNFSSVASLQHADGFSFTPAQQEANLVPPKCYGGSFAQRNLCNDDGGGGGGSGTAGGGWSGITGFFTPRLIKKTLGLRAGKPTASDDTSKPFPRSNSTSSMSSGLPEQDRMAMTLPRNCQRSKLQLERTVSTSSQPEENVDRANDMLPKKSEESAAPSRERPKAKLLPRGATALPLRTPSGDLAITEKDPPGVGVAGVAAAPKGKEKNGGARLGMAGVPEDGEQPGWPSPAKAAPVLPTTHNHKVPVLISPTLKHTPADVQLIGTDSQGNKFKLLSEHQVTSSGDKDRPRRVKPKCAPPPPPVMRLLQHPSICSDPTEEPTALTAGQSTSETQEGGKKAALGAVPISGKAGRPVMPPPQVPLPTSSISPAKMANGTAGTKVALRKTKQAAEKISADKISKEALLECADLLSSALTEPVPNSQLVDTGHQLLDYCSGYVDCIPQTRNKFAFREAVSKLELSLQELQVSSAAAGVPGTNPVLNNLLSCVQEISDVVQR
Sequence of UniProt P49841 (whole entry, looked up): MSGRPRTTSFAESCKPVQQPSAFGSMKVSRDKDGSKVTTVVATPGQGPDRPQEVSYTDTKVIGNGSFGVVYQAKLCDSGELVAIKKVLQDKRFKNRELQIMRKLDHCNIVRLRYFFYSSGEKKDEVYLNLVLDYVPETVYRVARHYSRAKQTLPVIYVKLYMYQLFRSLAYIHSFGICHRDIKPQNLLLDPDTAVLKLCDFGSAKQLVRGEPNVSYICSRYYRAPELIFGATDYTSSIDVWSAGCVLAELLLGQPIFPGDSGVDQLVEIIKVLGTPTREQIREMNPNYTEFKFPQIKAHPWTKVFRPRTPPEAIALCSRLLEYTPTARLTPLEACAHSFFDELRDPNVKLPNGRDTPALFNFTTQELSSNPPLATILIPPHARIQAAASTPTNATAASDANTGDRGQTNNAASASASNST

Study 1
SMILES: CCCC(=O)Oc1ccc2[nH]c(C(=O)c3cc4ccccc4[nH]3)cc2c1
Read-out: enzyme activity
Mode: inhibitor
Tested at: 0.5 µM
Baseline: control
Endpoint: remaining activity
MAP3K14 (Homo sapiens, UniProt Q99558): 109%
FRK (Homo sapiens, UniProt P42685): 98.2%
FGFR1 (Homo sapiens, UniProt P11362): 96%
NEK6 (Homo sapiens, UniProt Q9HC98): 101%
MAP2K2 (Homo sapiens, UniProt P36507): 98.7%
ABL2 (Homo sapiens, UniProt P42684): 96.3%
JAK3 (Homo sapiens, UniProt P52333): 95.6%
GSK3B (Homo sapiens, UniProt P49841): 94%
CSNK1G3 (Homo sapiens, UniProt Q9Y6M4): 82.7%
ULK2 (Homo sapiens, UniProt Q8IYT8): 98.3%
EPHA3 (Homo sapiens, UniProt P29320): 96.8%
MST1R (Homo sapiens, UniProt Q04912): 103%
MAPK3 (Homo sapiens, UniProt P27361): 87.9%
LCK (Homo sapiens, UniProt P06239): 94%

Study 2
Compound: COc1cc(-c2cn(C3CCc4ccccc4N(CC(F)(F)F)C3=O)nn2)ccc1-n1ccc(C)n1 (stereo not shown)
Read-out: cell-free assay
Method: competition with immobilised ligand
Tested at: 1 µM
Endpoint: remaining binding
PIK3CA (Homo sapiens, UniProt P42336, M1043I): 100%
LRRK2 (Homo sapiens, UniProt Q5S007): 54%
CDK18 (Homo sapiens, UniProt Q07002): 100%
EIF2AK1 (Homo sapiens, UniProt Q9BQI3): 93%
GRK1 (Homo sapiens, UniProt Q15835): 80%
NEK2 (Homo sapiens, UniProt P51955): 100%
PIP5K1C (Homo sapiens, UniProt O60331): 100%

Study 3
Method: PRP chromatography
Notes: linear fit, 1 mL
Endpoint: logD 1,9-decadiene/water
CC(C)C[C@@H]1NC(=O)[C@H](C)NC(=O)[C@@H](CC(C)C)NC(=O)[C@H](CC(C)C)NC(=O)[C@H](C(C)C)NC(=O)[C@H](CC(C)C)NC(=O)[C@@H](CC(C)C)NC1=O: 0.821 log units
CC(C)C[C@@H]1NC(=O)[C@H](C)NC(=O)[C@@H](CC(C)C)NC(=O)[C@H](C(C)C)NC(=O)[C@H](CC(C)C)NC(=O)[C@@H](CC(C)C)NC(=O)[C@H](CC(C)C)NC1=O: 0.746 log units
CC(C)C[C@@H]1NC(=O)[C@H](C(C)C)NC(=O)[C@@H](CC(C)C)NC(=O)[C@@H](CC(C)C)NC(=O)[C@H](C(C)C)NC(=O)[C@H](CC(C)C)NC(=O)[C@@H](CC(C)C)NC1=O: -3.95 log units
CC(C)C[C@@H]1NC(=O)[C@H](C)NC(=O)[C@H](C)NC(=O)[C@@H](CC(C)C)NC(=O)[C@H](C(C)C)NC(=O)[C@H](CC(C)C)NC(=O)[C@@H](CC(C)C)NC1=O: -0.765 log units
CC(C)C[C@@H]1NC(=O)[C@@H](C)NC(=O)[C@H](CCC(=O)N2CCCC2)NC(=O)[C@H](C)NC(=O)[C@H](C(C)C)NC(=O)[C@H](CC(C)C)NC(=O)[C@@H](CC(C)C)NC1=O: -1.12 log units

Study 4
Cell line: mouse MPNST tumor cells
Method: high-content nuclear imaging
Measured: cell number
Tested at: 10 µM
Time: 12 h
Notes: mean of 2 replicates
Baseline: plate mean
Reading: higher = more cells
Endpoint: nuclei count
CC(=O)O[C@]1(C(C)=O)CC[C@H]2[C@@H]3C=C(Cl)C4=CC(=O)[C@@H]5C[C@@H]5[C@]4(C)[C@H]3CC[C@@]21C: 3.29 z-score
c1ccc(-c2oc3ncnc(NC[C@@H]4CCCO4)c3c2-c2ccccc2)cc1: 1.51 z-score
CO[C@H]1/C=C/O[C@@]2(C)Oc3c(C)c(O)c4c(O)c(c(/C=N/N5CCN(C)CC5)c(O)c4c3C2=O)NC(=O)/C(C)=C\C=C\[C@H](C)[C@H](O)[C@@H](C)[C@@H](O)[C@@H](C)[C@H](OC(C)=O)[C@@H]1C: 2.16 z-score
CC1Nc2ccc(Cl)cc2S(=O)(=O)N1 (stereo not shown): 0.706 z-score
CCCC1O[C@@H]2C[C@H]3[C@@H]4CCC5=CC(=O)C=C[C@]5(C)[C@H]4[C@@H](O)C[C@]3(C)[C@]2(C(=O)CO)O1 (stereo partly shown): 4.02 z-score and 0.163 z-score

Excerpt of the above (study 1):
MAP2K2 (Homo sapiens, UniProt P36507): 98.7%
MST1R (Homo sapiens, UniProt Q04912): 103%
FGFR1 (Homo sapiens, UniProt P11362): 96%
